# Assay results gathered from unrelated publications.
# Each numbered part is a random draw from the data of one study; scales do not carry over between parts. Changes are numbered by the printed parent chain.
# UniProt Q9XED8, sequence (whole entry, looked up): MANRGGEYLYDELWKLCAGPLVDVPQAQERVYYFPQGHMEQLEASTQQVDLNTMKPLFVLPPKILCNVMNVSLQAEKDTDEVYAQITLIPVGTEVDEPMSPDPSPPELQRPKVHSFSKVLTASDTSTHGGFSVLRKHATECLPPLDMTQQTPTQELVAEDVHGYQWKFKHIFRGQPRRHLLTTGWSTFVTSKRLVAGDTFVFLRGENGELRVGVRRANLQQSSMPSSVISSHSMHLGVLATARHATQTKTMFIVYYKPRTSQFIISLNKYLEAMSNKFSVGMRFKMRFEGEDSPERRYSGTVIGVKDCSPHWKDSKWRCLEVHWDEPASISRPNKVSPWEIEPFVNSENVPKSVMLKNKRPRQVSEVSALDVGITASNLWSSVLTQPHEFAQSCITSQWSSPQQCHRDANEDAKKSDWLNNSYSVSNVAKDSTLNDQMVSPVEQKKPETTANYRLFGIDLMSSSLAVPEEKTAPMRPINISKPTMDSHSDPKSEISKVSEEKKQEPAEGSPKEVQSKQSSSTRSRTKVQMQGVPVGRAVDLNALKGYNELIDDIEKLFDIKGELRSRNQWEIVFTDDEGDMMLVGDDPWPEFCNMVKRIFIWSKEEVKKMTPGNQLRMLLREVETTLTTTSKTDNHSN
# UniProt P93022, sequence (whole entry, looked up): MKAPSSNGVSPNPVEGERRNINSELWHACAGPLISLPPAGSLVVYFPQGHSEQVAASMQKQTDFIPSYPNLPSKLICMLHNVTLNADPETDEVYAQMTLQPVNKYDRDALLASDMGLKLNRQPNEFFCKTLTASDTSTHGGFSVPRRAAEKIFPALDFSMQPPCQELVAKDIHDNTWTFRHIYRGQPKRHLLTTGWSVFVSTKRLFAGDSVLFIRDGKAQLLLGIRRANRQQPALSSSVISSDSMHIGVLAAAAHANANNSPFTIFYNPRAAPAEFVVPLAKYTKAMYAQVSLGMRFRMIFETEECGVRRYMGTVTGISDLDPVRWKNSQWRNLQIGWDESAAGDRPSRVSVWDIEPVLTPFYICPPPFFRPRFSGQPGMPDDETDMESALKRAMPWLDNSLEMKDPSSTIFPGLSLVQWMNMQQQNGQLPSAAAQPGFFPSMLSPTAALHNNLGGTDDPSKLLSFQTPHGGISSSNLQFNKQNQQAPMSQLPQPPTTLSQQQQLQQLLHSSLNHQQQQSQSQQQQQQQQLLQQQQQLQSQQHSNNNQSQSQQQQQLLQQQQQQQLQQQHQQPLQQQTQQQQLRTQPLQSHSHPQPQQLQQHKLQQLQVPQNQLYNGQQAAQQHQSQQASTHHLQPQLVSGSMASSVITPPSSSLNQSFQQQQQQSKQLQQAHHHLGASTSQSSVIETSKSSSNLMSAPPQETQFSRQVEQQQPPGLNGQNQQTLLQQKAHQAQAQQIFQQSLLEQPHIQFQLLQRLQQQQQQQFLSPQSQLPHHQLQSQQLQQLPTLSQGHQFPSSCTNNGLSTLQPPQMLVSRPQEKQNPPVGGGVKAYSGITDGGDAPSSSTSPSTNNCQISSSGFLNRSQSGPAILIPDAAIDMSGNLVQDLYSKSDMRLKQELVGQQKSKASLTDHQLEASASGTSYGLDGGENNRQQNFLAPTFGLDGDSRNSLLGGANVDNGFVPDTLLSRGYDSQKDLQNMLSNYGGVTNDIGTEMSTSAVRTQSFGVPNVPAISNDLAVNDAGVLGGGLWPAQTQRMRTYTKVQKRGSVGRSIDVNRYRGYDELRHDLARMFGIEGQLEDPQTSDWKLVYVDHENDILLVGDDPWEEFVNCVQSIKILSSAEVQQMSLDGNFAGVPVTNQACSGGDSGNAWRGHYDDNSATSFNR
# UniProt Q84WU6, sequence (whole entry, looked up): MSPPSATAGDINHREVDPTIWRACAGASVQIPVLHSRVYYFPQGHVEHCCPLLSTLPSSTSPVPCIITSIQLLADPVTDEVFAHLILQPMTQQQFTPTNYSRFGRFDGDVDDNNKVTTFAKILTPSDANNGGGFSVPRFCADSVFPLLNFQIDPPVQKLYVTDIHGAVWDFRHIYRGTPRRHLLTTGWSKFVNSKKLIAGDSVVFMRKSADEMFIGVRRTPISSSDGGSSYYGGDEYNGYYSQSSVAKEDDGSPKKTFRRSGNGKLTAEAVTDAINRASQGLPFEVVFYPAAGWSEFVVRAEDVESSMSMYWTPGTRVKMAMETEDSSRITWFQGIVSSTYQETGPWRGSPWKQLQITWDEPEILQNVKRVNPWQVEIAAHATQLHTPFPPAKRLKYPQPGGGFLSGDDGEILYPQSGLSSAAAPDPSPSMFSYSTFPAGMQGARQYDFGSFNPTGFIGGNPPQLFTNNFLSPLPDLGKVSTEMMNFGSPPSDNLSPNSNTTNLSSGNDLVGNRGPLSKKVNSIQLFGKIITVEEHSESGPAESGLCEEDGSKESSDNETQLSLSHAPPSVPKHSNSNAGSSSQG

# Set 1 — method: DHFR PCA, deep sequencing; sample: yeast; together with: (+)-ABA 0.032 µM; baseline: wild-type fitted maximum; reading: higher = stronger binding
# Target: ABI1, truncated, D143A, DHFR fusion (Arabidopsis thaliana)
# Notes: methotrexate growth selection, single substitutions
# Starting sequence: PYL1, truncated, DHFR fusion (Arabidopsis thaliana); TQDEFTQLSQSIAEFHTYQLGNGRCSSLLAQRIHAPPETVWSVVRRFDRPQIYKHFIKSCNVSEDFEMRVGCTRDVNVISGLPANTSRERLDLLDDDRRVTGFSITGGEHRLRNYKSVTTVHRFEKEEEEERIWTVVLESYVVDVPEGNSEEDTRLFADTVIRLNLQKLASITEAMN
Variant,relative binding score
P37S,1.82%
P50I,-2.96%
K58I,-0.178%
P50Q,-3.62%
D65H,17.8%
A13Y,3.04%
S63R,19.7%
N165V,4.55%
R74L,0.659%
A35M,2.3%
E125D,19.3%
L20H,44.4%
N114L,-0.122%
Q51C,-2.51%
S117D,-2.25%
I12V,8.03%
D95E,-4.59%
N77K,54.4%
L82K,-0.984%
E109F,3.76%
N77G,12%
F124I,57.8%
L138I,-4.45%
Q19D,45.2%
F56W,1.8%

# Set 2 — method: RNA Bind-n-Seq; form: RNA; sample: in vitro; concentration: 100 nM; baseline: input RNA pool; reading: higher = stronger binding
# Target: RING finger protein unkempt homolog, zinc fingers 1-6, SBP tag (UNK, Homo sapiens, UniProt Q9C0B0, residues 30-357)
# UniProt Q9C0B0, sequence (30-357, looked up): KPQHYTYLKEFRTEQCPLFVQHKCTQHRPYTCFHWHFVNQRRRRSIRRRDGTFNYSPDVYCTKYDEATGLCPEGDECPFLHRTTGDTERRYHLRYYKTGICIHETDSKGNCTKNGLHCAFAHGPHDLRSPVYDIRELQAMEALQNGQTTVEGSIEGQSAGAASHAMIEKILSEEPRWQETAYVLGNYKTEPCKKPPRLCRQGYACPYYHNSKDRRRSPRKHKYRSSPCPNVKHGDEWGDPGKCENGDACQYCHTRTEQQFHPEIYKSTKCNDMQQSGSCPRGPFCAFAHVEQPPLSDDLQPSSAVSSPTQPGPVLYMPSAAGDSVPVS
# Notes: RNA with constant flanks, vertebrate orthologous sites, ends assumed
Strand,bound/input enrichment [ratio]
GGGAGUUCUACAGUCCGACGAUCUAAUGCAAUGCUUGAAGGCUCUGAGCUCAAAAAGAUUCGGUCCAACUCUAGAGUGUACCACCGGUAUUUCUUUUUAGAAGCAGAUAUGCAGUUCCUACGCUGGGAACCUUCAAAGAAGGACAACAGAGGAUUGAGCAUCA,0.336
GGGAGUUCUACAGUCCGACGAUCAGAAUCUAAAAUUAUGGCAGAAGAGCCAAGCAGUAGCAUUUUUUCCAUAAAUGUAAAAAUUAGAUCCAGCCUUUGUUUCCUUAUUCAACUUUAAAAAUAAAAAUACCUCAGUACUAUGUUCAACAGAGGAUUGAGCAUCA,0.912
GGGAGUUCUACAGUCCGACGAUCCAACUCAAUGGUUGAGGGCUCCGAACUCAAAAAGGUCCGUUCCAACUCCAGGAUUUACCAUCGGUACUUUUUGCUGGAUGCUGACAUGCAAAGCCUGAGGUGGGAGCCGUCUAAGAAGGACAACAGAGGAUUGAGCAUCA,0.146
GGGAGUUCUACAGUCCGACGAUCCUCUAUGGGCCUCGCAGAGUUGAAAUAAUGGAAGAGGAAAGUGAAUAGUAGUCUUCAUUUUAGUAUUUAUGCUUAGGUGUGAAAAUAAAUGUUAUUUGCUGAUCAUUUCUAUAAUCCAGACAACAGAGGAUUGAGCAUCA,0.553
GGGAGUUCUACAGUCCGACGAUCAAGAUGGUGGUUGUACAUUAUUUCAUUUAGAAAAUAUAAAAAUUCAUUUUGUUUUGAAGCUAGGUGUUAAACUGGAAUAGCUCUUAUACCCCAGAGAAUGGGGGCAGUUGUGCCCUUCCCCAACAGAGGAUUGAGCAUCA,1.17
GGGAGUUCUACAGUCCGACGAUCCAUCUCUCAUUUUAUGUAUCCAGAAAUGGCUUUGAAUUUUUUAAAAAUUGCUGUUUUAAUUAGUUUUGCCCUCACGAGGUGUUGUUAUAGUUUACCAGAAACAGGUAUCUGUCUGAAUUACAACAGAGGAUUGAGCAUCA,1.05
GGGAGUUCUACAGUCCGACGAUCUGCAUUAUUUGACCAGAGUUGAGGUGACAGAAUUCGAAGACAUCAAAUCAGGUUACAGAAUAGAUUUUUAUUUUGAUGAGAAUCCAUACUUUGAAAAUAAAGUUCUCUCCAAAGAGUUUCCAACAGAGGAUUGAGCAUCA,0.656
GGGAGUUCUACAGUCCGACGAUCCCCUCUGAACCCCAUAUCUUCUGUUUCAUAAUGCAGAAGUAUUCUUUUCAAUUAUAUUGUUAGUGGACUUGUUUUAAUUUUAGAGAAACUUUGAGUACAGAUACUGUGAGCUUACAUUGACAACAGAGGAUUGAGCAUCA,1.77
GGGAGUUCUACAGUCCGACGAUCGUUAGGUCAUGACCCUUAUAGGUUAGGUCAUGAUGCCUACAGGUUAGGGCAGGACCCGUAUAGAUUAGGCCAUGAUCCCUACAGACUAACUCCUGAUCCCUAUAGGAUGUCACCUAGACCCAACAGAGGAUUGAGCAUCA,0.584
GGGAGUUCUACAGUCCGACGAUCUUGUAUAACAAUAAAGAAAUCCAAAAUGUUAUGUCUCCCUUUGCUUCUACCCCUCUGGUUUCUCUUCUCAAAGCGACGUUCCUGCGACGUGCACGAGCGUGCUCACAUGUUAUUAAAGCGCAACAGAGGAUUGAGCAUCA,0.295
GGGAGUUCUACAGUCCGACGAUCUCUCAUUUUGUAUGUCAAAAAAAAAAGGGUUUGAAUUUUUAAACAAUUGCUAGUUUUAAUUAGCUCUGCCCUCAUGAAAAUAUAUUAUAGUCACCACAAACAUAUCUGUCUGAAUUACUUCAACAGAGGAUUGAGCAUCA,0.493

# Set 3 — target: NFIL3, bZIP domain (human); method: DHFR protein complementation; sample: yeast; baseline: wild-type JUN-FOS pair; reading: higher = stronger binding
# Notes: single substitutions, most at no-binding floor
# Starting sequence: JUN, bZIP domain (human); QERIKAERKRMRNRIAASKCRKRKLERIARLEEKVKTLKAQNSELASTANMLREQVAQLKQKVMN; partner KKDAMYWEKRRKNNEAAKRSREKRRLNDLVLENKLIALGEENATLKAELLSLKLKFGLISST
Variant,binding fitness [natural log]
V35T,-1.56
L45S,-1.48
R30N,-1.39
S47E,-1.4
T48K,-1.3
M51S,-1.39
A29G,-1.44
L38K,-1.54
E33R,-1.38
S43T,-1.35
E33L,-1.31
A49C,-1.42
Q55A,-1.48
A49F,-1.52
K36E,-1.56
L45Q,-1.51
M51W,-1.43

# Set 4 — method: protein binding microarray; form: double-stranded DNA, one strand shown; sample: in vitro; concentration: not given; baseline: not given; reading: higher = stronger binding
# Target: Histone acetyltransferase KAT6A, winged helix 1, GST fusion (KAT6A, Homo sapiens, UniProt Q92794, residues 1-85)
# Notes: 8-mer, flanks averaged, mean of 2 arrays, mostly near background
# Residues (chain): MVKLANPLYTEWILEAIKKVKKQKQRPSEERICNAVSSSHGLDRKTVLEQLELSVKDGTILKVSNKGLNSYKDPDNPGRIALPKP
Strand,E-score
ACCGAGTC,-0.0171
ATATGTAA,-0.162
CCGACGGA,0.462
AAGTAATA,0.033
TGTACAAA,-0.221
CTGCCAAG,-0.209
CCCTTATC,-0.129
CGGACTGC,0.126
ATCTTACA,-0.165
AGCGTTAA,0.0882
ATTGCTTG,-0.118
ACACATTC,-0.0954
ATATAAAG,-0.109
CCAGTACA,-0.153
GTTTTGGA,-0.173
CAATCACA,-0.216
ATCCCGAA,-0.0963
CCCCCCGA,0.13
CAAGACTC,-0.0505
AAATTGGG,-0.269
AATTTTGG,-0.134

# Set 5 — Sequence: B1 (IAA16); method: two-hybrid; baseline: out of 4 tests; reading: higher = firmer interaction
# B1: IAA16 (Arabidopsis thaliana, UniProt O24407); chain MINFEATELRLGLPGGNHGGEMAGKNNGKRGFSETVDLKLNLSSTAMDSVSKVDLENMKEKVVKPPAKAQVVGWPPVRSFRKNVMSGQKPTTGDATEGNDKTSGSSGATSSASACATVAYVKVSMDGAPYLRKIDLKLYKTYQDLSNALSKMFSSFTIGNYGPQGMKDFMNESKLIDLLNGSDYVPTYEDKDGDWMLVGDVPWEMFVDSCKRIRIMKGSEAIGLAPRALEKCKNRS
partner,conditions,positive tests
"ARF17 (Arabidopsis thaliana, UniProt Q84WU6)",weak activation fusion,0
"IAA17 (Arabidopsis thaliana, UniProt P93830)",,4
"ARF7 1030-1164 (Arabidopsis thaliana, UniProt P93022)",,3
"ARF9 519-638 (Arabidopsis thaliana, UniProt Q9XED8)",weak activation fusion,2

# Set 6 — target: CCNA1, cyclin fold, Cln2 fusion (human); method: yeast growth competition, sequencing; sample: yeast; notes: weak parent motif; baseline: not given; reading: higher = stronger binding
# Starting sequence: MICAL3 docking peptide (human); LQLRRQLSFSEDS; partner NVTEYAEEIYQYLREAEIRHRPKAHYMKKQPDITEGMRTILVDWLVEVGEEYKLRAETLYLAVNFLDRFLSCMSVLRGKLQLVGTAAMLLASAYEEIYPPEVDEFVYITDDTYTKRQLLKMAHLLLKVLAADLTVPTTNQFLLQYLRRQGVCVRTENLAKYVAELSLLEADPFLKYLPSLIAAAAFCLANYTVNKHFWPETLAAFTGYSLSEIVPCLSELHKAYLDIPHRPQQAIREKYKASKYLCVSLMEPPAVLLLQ
Variant,normalised enrichment score
LQLRRQLEFSEDS [S8E],-0.0175
LQLRRQLSNSEDS [F9N],-0.264
LQLFRQLSFSEDS [R4F],-0.0523
LQDRRQLSFSEDS [L3D],0.154
LQLRRQLSFSWDS [E11W],0.167
LRLRRQLSFSEDS [Q2R],0.221
LQLRRQLSFSSDS [E11S],0.184
LQLRRQLSFSTDS [E11T],0.321
LQLRRQLSFHEDS [S10H],0.435
LQLRRALSFSEDS [Q6A],0.263
LQLRRQYSFSEDS [L7Y],0.208
LNLRRQLSFSEDS [Q2N],0.285
LQLVRQLSFSEDS [R4V],-0.0689
LQLSRQLSFSEDS [R4S],0.281
LQLRRQLAFSEDS [S8A],0.517
LQYRRQLSFSEDS [L3Y],0.196
LQLRRQLSLSEDS [F9L],-0.0573
LGLRRQLSFSEDS [Q2G],0.304
LQLRRQLSFSEPS [D12P],0.612
LPLRRQLSFSEDS [Q2P],0.803
LQLRYQLSFSEDS [R5Y],0.494
LQLRRQLSFTEDS [S10T],0.536
LQWRRQLSFSEDS [L3W],-0.135
LQLRRQLSFEEDS [S10E],0.762
LQLRRQLSFSLDS [E11L],0.372

# Some of these lines once more (set 6):
Variant,normalised enrichment score
LQYRRQLSFSEDS [L3Y],0.196
LNLRRQLSFSEDS [Q2N],0.285
LQLRRQLSFHEDS [S10H],0.435
LQLVRQLSFSEDS [R4V],-0.0689
LGLRRQLSFSEDS [Q2G],0.304
LQLRRQLAFSEDS [S8A],0.517
LQLRRQLSFSWDS [E11W],0.167
LQDRRQLSFSEDS [L3D],0.154
LQLRRQLSFTEDS [S10T],0.536
LQLRRQYSFSEDS [L7Y],0.208
LQLRRQLSFSLDS [E11L],0.372
